Published values collected from several papers.
Organism: Enterococcus faecalis

CN(C)[C@@H]1C(O)=C(C(N)=O)C(=O)[C@@]2(O)C(O)=C3C(=O)c4c(O)cnc(F)c4C[C@H]3C[C@@H]12.Cl  MIC (broth microdilution CLSI; ATCC 29212): 4 µg/mL
Cc1c2c(nn1C)CSCc1cc(n(C)n1)CSc1cc(c3ccccc3c1)OCCCc1c(C(=O)O)n(C)c3c-2c(Cl)ccc13  MIC (broth microdilution; ATCC 29212): 25 µM
CN[C@H](CC(C)C)C(=O)N[C@H]1C(=O)N[C@@H](CC(N)=O)C(=O)N[C@H]2C(=O)N[C@H]3C(=O)N[C@H](C(=O)N[C@H](C(=O)O)c4cc(O)cc(O)c4-c4cc3ccc4O)[C@H](O)c3ccc(c(Cl)c3)Oc3cc2cc(c3O[C@@H]2O[C@H](CO)[C@@H](O)[C@H](O)[C@H]2O[C@H]2C[C@](C)(N)[C@H](O)[C@H](C)O2)Oc2ccc(cc2Cl)[C@H]1O  MIC (ATCC 29212): 0.7 µg/mL
C[C@@H](O)[C@H]1C(=O)N2C(C(=O)O)=C(S[C@@H]3CN[C@H](C(=O)N(C)C)C3)[C@H](C)[C@H]12  MIC (broth microdilution; 18 h): 0.25 µg/mL
C[N+](C)(C)CCCN  MIC (BM4166, VanA vancomycin-resistant; added: lipoteichoic acid 100 µg/mL): > 800 µg/mL
Cc1ccc2[nH]nc(-c3nnc(Nc4ccc(Cl)c(Br)c4)s3)c2c1  MIC (ATCC 2942): 174 µg/mL
CN(C)c1cc(NC(=O)CNC(C)(C)C)c(O)c2c1C[C@H]1C[C@H]3[C@H](N(C)C)C(O)=C(C(N)=O)C(=O)[C@@]3(O)C(O)=C1C2=O  MIC (broth microdilution CLSI; ATCC 29212): 0.031 µg/mL
Cc1ccc2[nH]nc(-c3nnc(Nc4ccc(F)cc4)s3)c2c1  MIC (ATCC 2942): 3.9 µg/mL
C=C/C=C(\C)CC[C@H]1C[C@@H](O)CC(=O)O1  MIC (broth microdilution; KCTC 3511): 256 µg/mL
Cc1cc(Nc2nnc(-c3n[nH]c4ccc(C)cc34)s2)cc([N+](=O)[O-])c1  MIC (ATCC 2942): 122 µg/mL
CN(C)c1ncc(O)c2c1C[C@H]1C[C@H]3[C@H](N(C)C)C(O)=C(C(N)=O)C(=O)[C@@]3(O)C(O)=C1C2=O.Cl.Cl  MIC (broth microdilution CLSI; ATCC 29212): 1 µg/mL
Cc1ccc2[nH]nc(-c3nnc(Nc4ccc(C)c(C)c4)s3)c2c1  MIC (ATCC 2942): 75.2 µg/mL
CCNc1nc(Cl)c2c(c1O)C(=O)C1=C(O)[C@]3(O)C(=O)C(C(N)=O)=C(O)[C@@H](N(C)C)[C@@H]3C[C@@H]1C2.Cl.Cl.Cl  MIC (broth microdilution CLSI; ATCC 29212): 0.063 µg/mL
CN[C@H](CC(C)C)C(=O)N[C@H]1C(=O)N[C@@H](CC(N)=O)C(=O)N[C@H]2C(=O)N[C@H]3C(=O)N[C@H](C(=O)N[C@H](C(=O)O)c4cc(O)cc(O)c4-c4cc3ccc4O)[C@H](O)c3ccc(c(Cl)c3)Oc3cc2cc(c3O[C@@H]2O[C@H](CO)[C@@H](O)[C@H](O)[C@H]2O[C@H]2C[C@](C)(N)[C@H](O)[C@H](C)O2)Oc2ccc(cc2Cl)[C@H]1O  MIC (ATCC 29212; 1 strain): 1 µg/mL
CC[C@H](C)[C@H](NC(=O)[C@H](CCCCN)NC(=O)[C@H](CCC(=O)O)NC(=O)[C@H](CCCCN)NC(=O)[C@H](CO)NC(=O)[C@H](CCCCN)NC(=O)[C@H](CCCNC(=N)N)NC(=O)[C@H](Cc1ccccc1)NC(=O)[C@H](Cc1ccccc1)NC(=O)[C@H](CC(=O)O)NC(=O)CNC(=O)[C@H](CC(C)C)NC(=O)[C@@H](N)CC(C)C)C(=O)NCC(=O)N[C@@H](CCCCN)C(=O)N[C@@H](CCC(=O)O)C(=O)N[C@@H](Cc1ccccc1)C(=O)N[C@@H](CCCCN)C(=O)N[C@@H](CCCNC(=N)N)C(=O)N[C@H](C(=O)N[C@H](C(=O)N[C@@H](CCC(N)=O)C(=O)N[C@@H](CCCNC(=N)N)C(=O)N[C@H](C(=O)N[C@@H](CCCCN)C(=O)N[C@@H](CC(=O)O)C(=O)N[C@@H](Cc1ccccc1)C(=O)N[C@@H](CC(C)C)C(=O)N[C@@H](CCCNC(=N)N)C(=O)N[C@@H](CC(N)=O)C(=O)N[C@@H](CC(C)C)C(=O)N[C@H](C(=O)N1CCC[C@H]1C(=O)N[C@@H](CCCNC(=N)N)C(=O)N[C@H](C(=O)N[C@@H](CCC(=O)O)C(=O)N[C@@H](CO)C(=O)O)[C@@H](C)O)C(C)C)[C@@H](C)CC)C(C)C)[C@@H](C)CC  MIC (ATCC 29212; highest concentration 50 µM): 16.7 µM
